Results from different studies.
Numbered parts are unrelated; each lists some results of a single study.

Study 1
Target: Transcriptional repressor CTCF (CTCF, Homo sapiens, UniProt P49711, residues 1-727, full length assumed)
Sequence of UniProt P49711 (whole entry, looked up): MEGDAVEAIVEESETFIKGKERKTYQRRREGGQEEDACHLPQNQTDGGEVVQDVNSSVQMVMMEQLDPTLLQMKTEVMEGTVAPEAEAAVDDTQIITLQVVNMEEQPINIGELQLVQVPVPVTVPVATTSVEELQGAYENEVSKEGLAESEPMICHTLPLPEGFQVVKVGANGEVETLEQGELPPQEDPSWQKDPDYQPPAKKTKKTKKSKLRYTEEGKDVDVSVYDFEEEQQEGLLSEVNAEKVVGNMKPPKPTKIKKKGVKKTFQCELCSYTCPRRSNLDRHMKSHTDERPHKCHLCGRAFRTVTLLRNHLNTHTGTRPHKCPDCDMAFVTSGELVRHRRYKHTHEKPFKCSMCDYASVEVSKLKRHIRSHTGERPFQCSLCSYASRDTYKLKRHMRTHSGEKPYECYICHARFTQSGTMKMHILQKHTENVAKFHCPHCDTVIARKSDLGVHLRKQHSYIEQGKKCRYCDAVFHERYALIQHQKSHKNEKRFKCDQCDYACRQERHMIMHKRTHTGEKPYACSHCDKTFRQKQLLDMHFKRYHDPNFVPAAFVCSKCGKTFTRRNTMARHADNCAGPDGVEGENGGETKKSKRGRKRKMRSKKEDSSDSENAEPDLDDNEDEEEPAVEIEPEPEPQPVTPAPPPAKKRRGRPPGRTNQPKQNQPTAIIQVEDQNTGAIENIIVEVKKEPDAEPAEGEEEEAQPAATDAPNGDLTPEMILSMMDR
Method: protein-binding microarray
Form: double-stranded DNA, one strand shown
Sample: in vitro
Concentration: not given
Setting: k-mer, scored over probes, only values ≥0.25
Direction: higher = stronger binding
| Oligonucleotide | E-score |
| --- | --- |
| ACCGCAAC | 0.291 |
| TATATGCA | 0.313 |
| TAATAATA | 0.369 |
| AGATAAAT | 0.294 |
| AAAGCTGA | 0.328 |
| CATATTAC | 0.26 |
| GCAATTGC | 0.282 |
| CTGCGCGA | 0.271 |

Study 2
Target: Interferon regulatory factor 5, full length, phosphomimetic (IRF5, Homo sapiens, UniProt Q13568-2, residues 1-514, K96S/S451D/S453D/S456D/S462D)
Method: protein-binding microarray
Form: double-stranded DNA, one strand shown
Sample: in vitro
Concentration: 250 nM
Setting: 60-bp whole probe
Together with: salmon DNA 0.4 mg/ml
Relative to: random background probes
Direction: higher = stronger binding
Constant ends, left off below: GCCTAGCAC … GTCTTGATTCGCTTGACGCTGCTG
| Oligonucleotide | log fluorescence |
| --- | --- |
| GATGGTATTTGCCTGTGGTCGTGCTAG | 0.297 z-score |
| TTAGATATCAGCCTCGATTAGTGCTAG | 0.458 z-score |
| TCATTTTTTTCCCTGAAACTGTGCTAG | 1.28 z-score |
| CAAGTTTCTCCTTTCGGAATGTGCTAG | 6.31 z-score |
| TTAGGACTGCTTCTCCTTTTGTGCTAG | -0.313 z-score |
| AGTGATAACTTTTTTTTTTCGTGCTAG | 1.11 z-score |
| GACGGTATAGGGTATCGGGACGTGCTA | 0.516 z-score |
| TTAGGACTGGGTATCGGTTGGTGCTAG | 3.28 z-score |

Study 3
Target: Sal-like protein 4, full length isoform B (SALL4, Homo sapiens, UniProt Q9UJQ4-2, residues 1-616)
Method: universal PBM
Form: double-stranded DNA, one strand shown
Sample: in vitro
Concentration: not given
Setting: 8-mer, flanks averaged, mean of replicates
Direction: higher = stronger binding
Construct (chain): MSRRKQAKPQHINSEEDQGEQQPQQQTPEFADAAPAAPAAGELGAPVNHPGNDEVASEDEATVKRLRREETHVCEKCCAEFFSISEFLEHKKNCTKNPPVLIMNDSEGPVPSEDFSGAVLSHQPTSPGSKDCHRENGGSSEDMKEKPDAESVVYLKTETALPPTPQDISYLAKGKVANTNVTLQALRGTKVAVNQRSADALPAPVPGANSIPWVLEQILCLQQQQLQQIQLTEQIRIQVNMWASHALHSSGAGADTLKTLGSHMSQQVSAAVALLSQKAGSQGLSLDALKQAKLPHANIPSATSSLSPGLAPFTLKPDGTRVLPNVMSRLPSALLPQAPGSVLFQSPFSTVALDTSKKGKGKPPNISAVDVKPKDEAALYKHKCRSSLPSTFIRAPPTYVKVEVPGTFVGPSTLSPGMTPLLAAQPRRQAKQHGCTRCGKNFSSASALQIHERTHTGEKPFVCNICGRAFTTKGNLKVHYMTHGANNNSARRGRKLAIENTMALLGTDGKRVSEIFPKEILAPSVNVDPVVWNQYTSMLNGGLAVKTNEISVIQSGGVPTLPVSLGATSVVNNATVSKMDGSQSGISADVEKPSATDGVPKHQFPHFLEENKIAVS
| Oligonucleotide | E-score |
| --- | --- |
| CCACTGGA | -0.246 |
| CAGGATTA | 0.116 |
| AGGGCACA | -0.0172 |
| ACCTATTA | 0.168 |
| CCTTAGCG | -0.23 |
| AGACGTCC | -0.0712 |
| AAAGACTC | -0.0153 |
| CTCGGGAC | -0.243 |

Single results of other studies
| SMILES | species | sample | concentration | time | quantity | value |
| --- | --- | --- | --- | --- | --- | --- |
| NS(=O)(=O)c1ccc(-c2nc3cscc3c(=O)[nH]2)cc1 | human | microsomes or S9 | 2 µM | 0.5 h | remaining compound | 54.8% |

Excerpt of the above (study 2):
| Oligonucleotide | log fluorescence |
| --- | --- |
| TTAGGACTGCTTCTCCTTTTGTGCTAG | -0.313 z-score |
| TCATTTTTTTCCCTGAAACTGTGCTAG | 1.28 z-score |
| CAAGTTTCTCCTTTCGGAATGTGCTAG | 6.31 z-score |
| TTAGATATCAGCCTCGATTAGTGCTAG | 0.458 z-score |
